Experimental data from different studies.
A part holds a random share of what one study measured. Values joined by “and” are separate records of one study, mostly repeats; a detail may differ.
UniProt Q9UBE8, sequence (whole entry, looked up): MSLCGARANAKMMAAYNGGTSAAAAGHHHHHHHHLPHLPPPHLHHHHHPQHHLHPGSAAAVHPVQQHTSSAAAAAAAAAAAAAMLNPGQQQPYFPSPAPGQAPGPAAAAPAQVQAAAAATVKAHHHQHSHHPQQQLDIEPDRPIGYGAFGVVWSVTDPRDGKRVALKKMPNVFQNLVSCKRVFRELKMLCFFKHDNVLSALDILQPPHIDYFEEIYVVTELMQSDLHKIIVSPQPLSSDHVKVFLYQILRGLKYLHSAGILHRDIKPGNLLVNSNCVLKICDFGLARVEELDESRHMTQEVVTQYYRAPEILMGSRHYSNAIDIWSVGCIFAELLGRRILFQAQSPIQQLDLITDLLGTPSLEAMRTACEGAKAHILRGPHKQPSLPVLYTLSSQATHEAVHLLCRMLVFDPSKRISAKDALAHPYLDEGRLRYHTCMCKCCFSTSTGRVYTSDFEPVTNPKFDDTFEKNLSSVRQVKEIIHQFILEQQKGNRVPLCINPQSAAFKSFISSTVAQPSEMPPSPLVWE
UniProt P42679, sequence (whole entry, looked up): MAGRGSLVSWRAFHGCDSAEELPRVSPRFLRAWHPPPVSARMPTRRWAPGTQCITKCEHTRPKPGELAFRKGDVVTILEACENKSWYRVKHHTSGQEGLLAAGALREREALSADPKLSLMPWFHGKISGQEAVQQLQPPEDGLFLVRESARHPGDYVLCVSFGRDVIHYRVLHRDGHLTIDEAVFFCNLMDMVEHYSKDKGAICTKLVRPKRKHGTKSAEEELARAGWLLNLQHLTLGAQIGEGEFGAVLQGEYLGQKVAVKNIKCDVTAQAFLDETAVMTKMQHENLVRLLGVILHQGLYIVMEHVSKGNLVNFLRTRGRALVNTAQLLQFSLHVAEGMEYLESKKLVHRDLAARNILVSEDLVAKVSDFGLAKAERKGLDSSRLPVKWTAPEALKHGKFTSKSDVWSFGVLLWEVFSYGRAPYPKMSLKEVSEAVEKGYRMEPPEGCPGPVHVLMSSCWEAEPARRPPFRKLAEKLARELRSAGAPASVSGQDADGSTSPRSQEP
UniProt P28223, sequence (whole entry, looked up): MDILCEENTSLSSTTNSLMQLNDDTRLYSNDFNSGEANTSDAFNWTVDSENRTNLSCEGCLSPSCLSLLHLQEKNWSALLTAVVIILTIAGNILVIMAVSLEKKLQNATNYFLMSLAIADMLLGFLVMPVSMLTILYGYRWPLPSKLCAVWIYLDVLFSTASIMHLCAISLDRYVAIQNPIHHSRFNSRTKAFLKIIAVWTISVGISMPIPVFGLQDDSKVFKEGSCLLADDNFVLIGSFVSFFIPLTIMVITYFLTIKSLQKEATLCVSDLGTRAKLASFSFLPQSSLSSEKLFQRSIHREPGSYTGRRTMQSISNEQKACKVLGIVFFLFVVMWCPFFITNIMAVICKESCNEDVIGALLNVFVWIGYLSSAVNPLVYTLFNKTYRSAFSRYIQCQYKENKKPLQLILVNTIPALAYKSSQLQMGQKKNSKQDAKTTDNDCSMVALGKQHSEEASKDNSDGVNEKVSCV
UniProt Q16512, sequence (whole entry, looked up): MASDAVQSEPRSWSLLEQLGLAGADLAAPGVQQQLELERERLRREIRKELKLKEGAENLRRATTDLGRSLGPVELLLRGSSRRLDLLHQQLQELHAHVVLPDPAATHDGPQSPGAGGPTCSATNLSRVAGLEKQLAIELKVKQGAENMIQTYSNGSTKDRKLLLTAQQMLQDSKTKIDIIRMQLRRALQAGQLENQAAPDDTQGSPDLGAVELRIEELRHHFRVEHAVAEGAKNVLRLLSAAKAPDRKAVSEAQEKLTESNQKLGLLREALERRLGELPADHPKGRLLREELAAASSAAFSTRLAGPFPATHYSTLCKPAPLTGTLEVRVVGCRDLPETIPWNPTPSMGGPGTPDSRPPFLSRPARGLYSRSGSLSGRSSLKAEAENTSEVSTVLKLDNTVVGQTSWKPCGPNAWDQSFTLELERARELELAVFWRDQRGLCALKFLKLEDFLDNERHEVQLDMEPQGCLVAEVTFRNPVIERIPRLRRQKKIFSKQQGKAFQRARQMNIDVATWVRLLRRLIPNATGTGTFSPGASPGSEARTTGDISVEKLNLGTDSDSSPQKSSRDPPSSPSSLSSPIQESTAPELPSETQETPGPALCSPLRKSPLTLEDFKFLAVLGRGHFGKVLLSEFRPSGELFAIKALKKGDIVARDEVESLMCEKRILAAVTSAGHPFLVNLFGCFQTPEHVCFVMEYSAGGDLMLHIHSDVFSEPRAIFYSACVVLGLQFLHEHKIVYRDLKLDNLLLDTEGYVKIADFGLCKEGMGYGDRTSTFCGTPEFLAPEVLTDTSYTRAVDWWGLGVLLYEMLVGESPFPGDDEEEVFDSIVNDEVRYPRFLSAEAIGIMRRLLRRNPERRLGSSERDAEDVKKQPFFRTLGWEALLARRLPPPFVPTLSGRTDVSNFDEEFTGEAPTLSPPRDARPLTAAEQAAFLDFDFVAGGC
UniProt Q8NG66, sequence (whole entry, looked up): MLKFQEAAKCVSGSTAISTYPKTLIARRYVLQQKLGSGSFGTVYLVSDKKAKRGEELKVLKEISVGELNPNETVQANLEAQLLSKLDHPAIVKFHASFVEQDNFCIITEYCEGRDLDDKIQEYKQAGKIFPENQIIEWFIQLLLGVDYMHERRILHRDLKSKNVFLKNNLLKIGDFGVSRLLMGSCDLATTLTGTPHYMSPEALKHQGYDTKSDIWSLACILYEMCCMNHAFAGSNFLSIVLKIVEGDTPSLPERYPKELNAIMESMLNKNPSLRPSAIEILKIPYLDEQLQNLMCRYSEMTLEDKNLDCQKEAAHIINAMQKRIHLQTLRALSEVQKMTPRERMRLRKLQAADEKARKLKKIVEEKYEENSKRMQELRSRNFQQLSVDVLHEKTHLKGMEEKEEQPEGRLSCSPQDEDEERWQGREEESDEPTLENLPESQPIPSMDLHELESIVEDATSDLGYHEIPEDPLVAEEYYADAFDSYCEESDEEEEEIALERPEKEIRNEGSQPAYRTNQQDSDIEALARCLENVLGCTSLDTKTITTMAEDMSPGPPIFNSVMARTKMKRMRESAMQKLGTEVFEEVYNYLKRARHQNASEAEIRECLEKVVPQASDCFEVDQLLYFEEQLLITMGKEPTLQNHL
UniProt O00506, sequence (whole entry, looked up): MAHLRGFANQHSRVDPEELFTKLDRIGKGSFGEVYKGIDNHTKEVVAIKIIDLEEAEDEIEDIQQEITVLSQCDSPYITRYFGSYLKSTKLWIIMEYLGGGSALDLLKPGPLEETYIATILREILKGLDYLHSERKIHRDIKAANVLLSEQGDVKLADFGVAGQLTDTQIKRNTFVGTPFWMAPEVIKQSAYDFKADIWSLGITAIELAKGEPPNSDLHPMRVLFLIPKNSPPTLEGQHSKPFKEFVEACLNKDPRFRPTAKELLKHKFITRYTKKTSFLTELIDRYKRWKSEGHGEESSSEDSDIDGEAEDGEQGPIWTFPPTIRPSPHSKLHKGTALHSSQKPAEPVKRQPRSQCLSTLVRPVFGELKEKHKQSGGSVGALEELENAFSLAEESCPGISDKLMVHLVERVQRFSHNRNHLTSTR
UniProt P28335, sequence (whole entry, looked up): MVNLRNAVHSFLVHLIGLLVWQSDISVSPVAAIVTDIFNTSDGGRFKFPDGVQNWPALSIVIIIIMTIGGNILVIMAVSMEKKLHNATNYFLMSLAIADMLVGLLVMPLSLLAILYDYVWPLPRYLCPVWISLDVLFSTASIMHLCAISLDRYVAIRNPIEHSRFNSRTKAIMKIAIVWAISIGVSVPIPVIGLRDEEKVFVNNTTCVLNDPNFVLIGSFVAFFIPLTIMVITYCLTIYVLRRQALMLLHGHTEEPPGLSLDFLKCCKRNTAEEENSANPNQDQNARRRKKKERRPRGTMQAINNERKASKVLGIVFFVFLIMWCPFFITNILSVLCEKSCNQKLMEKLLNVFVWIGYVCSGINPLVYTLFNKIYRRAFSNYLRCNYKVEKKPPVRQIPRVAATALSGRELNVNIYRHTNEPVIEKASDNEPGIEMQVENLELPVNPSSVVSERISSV
UniProt P51817, sequence (whole entry, looked up): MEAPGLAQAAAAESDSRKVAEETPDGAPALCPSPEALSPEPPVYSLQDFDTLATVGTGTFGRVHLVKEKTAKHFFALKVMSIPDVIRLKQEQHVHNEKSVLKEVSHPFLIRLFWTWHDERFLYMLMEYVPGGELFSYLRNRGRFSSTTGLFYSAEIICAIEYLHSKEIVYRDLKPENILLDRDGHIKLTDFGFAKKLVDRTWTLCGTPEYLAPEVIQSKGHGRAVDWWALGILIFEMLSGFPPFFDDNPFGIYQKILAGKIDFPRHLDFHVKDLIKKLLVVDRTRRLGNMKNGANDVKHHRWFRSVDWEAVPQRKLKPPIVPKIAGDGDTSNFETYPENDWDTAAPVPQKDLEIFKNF

Sample 1
Cell line: mouse MPNST tumor cells
Method: high-content nuclear imaging
Item: cell number
Concentration: 10 µM
Time: 12 h
Setting: mean of 2 replicates
Baseline: plate mean
Reading: higher = more cells
Measurement: nuclei count
CC(=O)Nc1cc([As](=O)(O)O)ccc1O: -0.379 z-score
CN1C[C@H](C(=O)N[C@]2(C)O[C@@]3(O)[C@@H]4CCCN4C(=O)[C@H](Cc4ccccc4)N3C2=O)C[C@@H]2c3cccc4[nH]cc(c34)C[C@H]21: 3.98 z-score and 2.1 z-score and 5.19 z-score
CC(C)(O)C(=O)Nc1ccc([N+](=O)[O-])c(C(F)(F)F)c1: 1.49 z-score

Sample 2
Cell line: A-375
Concentration: 100 µM
Time: 18 h
Measurement: viability
COc1cc2c(cc1OC)C13CCN4CC5=CCOC6CC(=O)N2C1C6C5CC43 (stereo not shown): 88.1%
CC(C)c1c(CN(C)C(C)Cc2ccccc2)n(C)n(-c2ccccc2)c1=O (stereo not shown): 109%
COc1cccc2c1cc([N+](=O)[O-])c1c(C(=O)O)cc3c(c12)OCO3: 58.9%
C[C@]12CC[C@H](O)CC1=CC[C@@H]1[C@@H]2CC[C@]2(C)C(=O)CC[C@@H]12: 46.8%
C#C[C@]1(O)CC[C@H]2[C@@H]3CCC4=CC(=O)CC[C@]4(C)[C@H]3CC[C@@]21C: 101%

Sample 3
SMILES: CC(=O)N[C@@H](Cc1c[nH]c2ccccc12)C(=O)N[C@@H](CCC(=O)C=[N+]=[N-])C(=O)OC(C)C
Measurement: body weight
C57BL/6 CES1-/- mouse, EL4 tumour; intravenous, 1 mg/kg DON equivalent, treatment day 17, 5 days per week; baseline: baseline: 90% and 96% and 100% and 92% and 110% and 89%
C57BL/6 CES1-/- mouse, both sexes; 0.3 mg/kg, day 15: 104% and 100% and 95.7%
C57BL/6 CES1-/- mouse, both sexes; 0.1 mg/kg, day 14: 110% and 100% and 109% and 114%

Sample 4
Target: Calcium/calmodulin-dependent protein kinase type II subunit alpha (CAMK2A, Homo sapiens, UniProt Q9UQM7)
UniProt Q9UQM7, sequence (whole entry, looked up): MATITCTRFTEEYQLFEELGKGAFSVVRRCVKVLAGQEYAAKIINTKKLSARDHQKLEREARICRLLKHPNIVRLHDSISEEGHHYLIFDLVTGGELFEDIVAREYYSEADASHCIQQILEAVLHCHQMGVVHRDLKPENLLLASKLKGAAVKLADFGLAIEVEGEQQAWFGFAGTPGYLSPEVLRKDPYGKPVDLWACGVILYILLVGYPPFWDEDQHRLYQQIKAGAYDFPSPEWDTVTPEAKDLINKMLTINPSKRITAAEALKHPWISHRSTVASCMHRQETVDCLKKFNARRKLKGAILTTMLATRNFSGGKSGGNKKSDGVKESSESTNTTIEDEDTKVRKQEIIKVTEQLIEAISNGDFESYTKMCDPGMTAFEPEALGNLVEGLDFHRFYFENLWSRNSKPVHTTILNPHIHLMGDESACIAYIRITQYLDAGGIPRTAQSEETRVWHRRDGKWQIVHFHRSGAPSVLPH
Effect on: enzyme activity
Mode: inhibitor
Concentration: 10 µM
Measurement: inhibition
COC1=C[C@]23CCCN2CCc2cc4c(cc2[C@@H]3[C@@H]1O)OCO4: 46%
C#C[C@]1(O)CC[C@H]2[C@@H]3CCC4=CC(=O)CCC4=C3C=C[C@@]21CC: -3%
CCCCCCCCC(=O)NCc1ccc(O)c(OC)c1: 18%
CC[C@H]1[C@@H]2C[C@H]3[C@@H]4N(C)c5ccccc5[C@]45C[C@@H]([C@H]2[C@H]5O)N3[C@@H]1O: 1%
C[C@@H]1CC[C@@]2(NC1)O[C@H]1C[C@H]3[C@@H]4CC=C5C[C@@H](O[C@@H]6O[C@H](CO)[C@@H](O[C@@H]7O[C@@H](C)[C@H](O)[C@@H](O)[C@H]7O)[C@H](O)[C@H]6O)CC[C@]5(C)[C@H]4CC[C@]3(C)[C@H]1[C@@H]2C: 39%
Cn1cc(C2=C(c3cn(C4CCN(Cc5ccccn5)CC4)c4ccccc34)C(=O)NC2=O)c2ccccc21: 3%

Sample 5
Structure (SMILES): COc1ccc2c(c[n+](C)c3c4cc5c(cc4ccc23)OCO5)c1OC
Effect on: enzyme activity
Mode: inhibitor
Concentration: 0.5 µM
Baseline: control
Measurement: remaining activity
cAMP-dependent protein kinase catalytic subunit PRKX (PRKX, Homo sapiens, UniProt P51817): 95.1%
MAP/microtubule affinity-regulating kinase 3 (MARK3, Homo sapiens, UniProt P27448): 98.7%
PAS domain-containing serine/threonine-protein kinase (PASK, Homo sapiens, UniProt Q96RG2): 91.1%
Tyrosine-protein kinase ITK/TSK (ITK, Homo sapiens, UniProt Q08881): 99.2%
LIM domain kinase 1 (LIMK1, Homo sapiens, UniProt P53667): 109%
RAC-alpha serine/threonine-protein kinase (AKT1, Homo sapiens, UniProt P31749): 97.6%
Serine/threonine-protein kinase MRCK alpha (CDC42BPA, Homo sapiens, UniProt Q5VT25): 84.8%
Serine/threonine-protein kinase N1 (PKN1, Homo sapiens, UniProt Q16512): 101%
Serine/threonine-protein kinase Nek11 (NEK11, Homo sapiens, UniProt Q8NG66): 106%
Tyrosine-protein kinase Fgr (FGR, Homo sapiens, UniProt P09769): 91.3%
Serine/threonine-protein kinase TAO3 (TAOK3, Homo sapiens, UniProt Q9H2K8): 96.1%
ALK tyrosine kinase receptor (ALK, Homo sapiens, UniProt Q9UM73): 105%
Insulin receptor (INSR, Homo sapiens, UniProt P06213): 94.9%
Serine/threonine-protein kinase 25 (STK25, Homo sapiens, UniProt O00506): 98.8%
Serine/threonine-protein kinase NLK (NLK, Homo sapiens, UniProt Q9UBE8): 102%
Megakaryocyte-associated tyrosine-protein kinase (MATK, Homo sapiens, UniProt P42679): 89.5%
Vascular endothelial growth factor receptor 3 (FLT4, Homo sapiens, UniProt P35916): 97.6%
Homeodomain-interacting protein kinase 1 (HIPK1, Homo sapiens, UniProt Q86Z02): 100%
Tyrosine-protein kinase Fer (FER, Homo sapiens, UniProt P16591): 89.8%
Cyclin-dependent kinase 3, with cyclin E (CDK3, Homo sapiens, UniProt Q00526): 91.7%
Proto-oncogene tyrosine-protein kinase Src (SRC, Homo sapiens, UniProt P12931): 91.5%
Tyrosine-protein kinase Fyn (FYN, Homo sapiens, UniProt P06241): 101%

Sample 6
Structure (SMILES): O=C(c1cc(Cc2n[nH]c(=O)c3ccccc23)ccc1F)N1CCN(C(=O)C2CC2)CC1
Measurement: clonogenic survival
CAPAN-1 BRCA2-corrected; 0.5 µM: 114% and 91.7%
CAPAN-1 (BRCA2-mutant); 0.25 µM: 23% and 28.7%
CAPAN-1 (BRCA2-mutant); 1 µM: 16.2% and 17.5%

Sample 7
Structure (SMILES): Cc1c(NC(=O)c2cc(C(N)=O)nc3cc(F)ccc23)c(C(F)(F)F)nn1Cc1ccc(C(C)(C)C)cc1
Effect on: binding
Method: radioligand binding
Concentration: 10 µM
Measurement: inhibition
Mu-type opioid receptor (OPRM1, Homo sapiens, UniProt P35372): 4.84%
5-hydroxytryptamine receptor 2A (HTR2A, Homo sapiens, UniProt P28223): -0.878%
5-hydroxytryptamine receptor 2C (HTR2C, Homo sapiens, UniProt P28335): -2.42%

Other studies, line by line
C=CC(=O)N1CCC[C@@H](n2nc(-c3ccc(Oc4ccccc4)cc3)c3c(N)ncnc32)C1 — inhibition (Serine/threonine-protein kinase 33 (STK33, Homo sapiens, UniProt Q9BYT3); enzyme activity, inhibitor; 1 µM): 31%

Excerpt of the above (sample 6):
CAPAN-1 BRCA2-corrected; 0.5 µM: 114% and 91.7%
CAPAN-1 (BRCA2-mutant); 0.25 µM: 23% and 28.7%
CAPAN-1 (BRCA2-mutant); 1 µM: 16.2% and 17.5%
